Experimental data collected from several papers.
Compare with care: the assays were run in different laboratories.
GLP1R: Glucagon-like peptide 1 receptor (GLP1R, Homo sapiens, UniProt P43220)
DCN1-like protein 1: DCN1-like protein 1 (Homo sapiens, UniProt Q96GG9)
UniProt Q96GG9, sequence (whole entry, looked up): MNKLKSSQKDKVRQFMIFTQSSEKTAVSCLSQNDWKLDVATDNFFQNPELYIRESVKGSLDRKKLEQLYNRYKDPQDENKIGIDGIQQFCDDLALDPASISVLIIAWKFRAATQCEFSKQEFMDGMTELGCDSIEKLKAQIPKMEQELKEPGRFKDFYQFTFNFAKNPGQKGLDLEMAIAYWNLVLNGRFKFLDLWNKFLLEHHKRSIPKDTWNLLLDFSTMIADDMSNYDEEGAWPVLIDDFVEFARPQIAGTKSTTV
UniProt P03956, sequence (whole entry, looked up): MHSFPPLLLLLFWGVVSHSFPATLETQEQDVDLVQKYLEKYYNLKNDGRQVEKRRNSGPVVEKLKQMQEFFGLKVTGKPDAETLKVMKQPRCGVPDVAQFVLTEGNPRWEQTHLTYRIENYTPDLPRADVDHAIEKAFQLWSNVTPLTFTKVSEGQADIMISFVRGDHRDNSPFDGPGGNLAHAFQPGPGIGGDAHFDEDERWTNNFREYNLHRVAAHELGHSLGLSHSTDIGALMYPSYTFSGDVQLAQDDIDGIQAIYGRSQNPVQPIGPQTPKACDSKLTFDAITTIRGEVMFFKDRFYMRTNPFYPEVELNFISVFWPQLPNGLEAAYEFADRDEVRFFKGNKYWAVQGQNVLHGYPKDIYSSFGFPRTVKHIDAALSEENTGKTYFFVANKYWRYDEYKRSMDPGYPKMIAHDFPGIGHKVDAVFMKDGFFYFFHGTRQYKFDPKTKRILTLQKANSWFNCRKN
UniProt O75815, sequence (whole entry, looked up): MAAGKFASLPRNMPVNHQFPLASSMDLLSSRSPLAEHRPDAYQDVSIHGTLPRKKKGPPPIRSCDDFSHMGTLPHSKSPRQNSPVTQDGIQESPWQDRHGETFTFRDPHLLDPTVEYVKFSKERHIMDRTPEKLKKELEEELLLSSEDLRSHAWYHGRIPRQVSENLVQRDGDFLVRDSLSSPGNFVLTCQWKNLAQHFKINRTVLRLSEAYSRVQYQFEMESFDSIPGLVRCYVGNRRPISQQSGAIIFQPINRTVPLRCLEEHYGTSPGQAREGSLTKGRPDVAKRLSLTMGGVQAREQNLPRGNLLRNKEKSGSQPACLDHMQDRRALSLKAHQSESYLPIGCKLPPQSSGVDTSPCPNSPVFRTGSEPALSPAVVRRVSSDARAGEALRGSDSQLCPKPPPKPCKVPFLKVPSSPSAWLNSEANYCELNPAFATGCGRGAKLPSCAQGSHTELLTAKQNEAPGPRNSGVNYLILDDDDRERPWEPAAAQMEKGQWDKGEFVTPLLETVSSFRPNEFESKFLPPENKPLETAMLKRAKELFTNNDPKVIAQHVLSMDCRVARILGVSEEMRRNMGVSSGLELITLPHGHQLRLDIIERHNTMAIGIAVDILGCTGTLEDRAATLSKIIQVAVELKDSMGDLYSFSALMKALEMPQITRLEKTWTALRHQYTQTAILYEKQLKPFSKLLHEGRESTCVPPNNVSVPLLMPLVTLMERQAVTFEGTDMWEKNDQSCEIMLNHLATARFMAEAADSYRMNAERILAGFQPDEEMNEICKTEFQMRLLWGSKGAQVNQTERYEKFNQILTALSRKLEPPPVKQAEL

SMILES | target or system | assay | system | setting | scale | endpoint | value
CC[C@H](C)[C@@H]1NC(=O)[C@@H]2CCCN2C(=O)[C@H](CC(C)C)NC(=O)[C@H](CC(C)C)NC(=O)CNC(=O)[C@@H](NC(=O)[C@@H](NC(=O)[C@H](CC(=O)O)NC(=O)CNC(=O)[C@@H](NC(=O)[C@H](C)NC(=O)CNC(=O)[C@H](CCCCN)NC(=O)[C@H](CC(C)C)NC(=O)[C@H](CC(C)C)NC(=O)[C@H](CCCCN)NC(=O)CNC(=O)[C@@H](NC(=O)[C@@H](N)CC(C)C)C(C)C)C(C)C)C(C)C)CSSC[C@@H](C(=O)O)NC1=O | – | RNA-seq, refers to: Ebi3 | mouse, traumatic brain injury model, frontal cortex and hippocampus | dose not given | baseline: TBI alone | log2 fold change | -2.26
CC[C@H](C)[C@H](NC(=O)[C@H](Cc1ccccc1)NC(=O)[C@H](CCC(=O)O)NC(=O)[C@H](CCCNC(=N)N)NC(=O)[C@H](C)NC(=O)[C@H](C)NC(=O)[C@H](CCC(N)=O)NC(=O)[C@H](CCC(=O)O)NC(=O)[C@H](CCC(=O)O)NC(=O)[C@H](CC(C)C)NC(=O)[C@H](Cc1ccc(O)cc1)NC(=O)[C@H](CO)NC(=O)[C@H](CO)NC(=O)[C@@H](NC(=O)[C@H](CC(=O)O)NC(=O)[C@H](CO)NC(=O)[C@@H](NC(=O)[C@H](Cc1ccccc1)NC(=O)[C@@H](NC(=O)CNC(=O)[C@H](CCC(=O)O)NC(=O)[C@H](C)NC(=O)CCc1cnc[nH]1)[C@@H](C)O)[C@@H](C)O)C(C)C)C(=O)N[C@@H](C)C(=O)N[C@@H](Cc1c[nH]c2ccccc12)C(=O)N[C@@H](CC(C)C)C(=O)N[C@H](C(=O)N[C@@H](CCCNC(=N)N)C(=O)NCC(=O)N[C@@H](CCCNC(=N)N)C(=O)N[C@@H](CCCCNC(=O)COCCOCCNC(=O)COCCOCCNC(=O)CC[C@H](NC(=O)CCCCCCCCCCCCCCCCC(=O)O)C(=O)O)C(=O)NCC(=O)NCC(=O)N[C@@H](CO)C(=O)N[C@@H](CCCCNc1c(NCCCCCN(O)C(=O)CCC(=O)NCCCCCN(O)C(=O)CCC(=O)NCCCCCN(O)C(C)=O)c(=O)c1=O)C(=O)N[C@@H](CCCCNc1c(NCCCCCN(O)C(=O)CCC(=O)NCCCCCN(O)C(=O)CCC(=O)NCCCCCN(O)C(C)=O)c(=O)c1=O)C(=O)O)C(C)C | GLP1R | cAMP reporter gene, agonist, CRE luciferase | BHK | without Zr, 1% HSA | – | EC50 | 0.17 nM
CC[C@H](C)[C@H](NC(=O)[C@H](Cc1ccccc1)NC(=O)[C@H](CCC(=O)O)NC(=O)[C@H](CCCNC(=N)N)NC(=O)[C@H](C)NC(=O)[C@H](C)NC(=O)[C@H](CCC(N)=O)NC(=O)[C@H](CCC(=O)O)NC(=O)[C@H](CCC(=O)O)NC(=O)[C@H](CC(C)C)NC(=O)[C@H](Cc1ccc(O)cc1)NC(=O)[C@H](CO)NC(=O)[C@H](CO)NC(=O)[C@@H](NC(=O)[C@H](CC(=O)O)NC(=O)[C@H](CO)NC(=O)[C@@H](NC(=O)[C@H](Cc1ccccc1)NC(=O)[C@@H](NC(=O)CNC(=O)[C@H](CCC(=O)O)NC(=O)[C@H](C)NC(=O)CCc1c[nH]cn1)[C@@H](C)O)[C@@H](C)O)C(C)C)C(=O)N[C@@H](C)C(=O)N[C@@H](Cc1c[nH]c2ccccc12)C(=O)N[C@@H](CC(C)C)C(=O)N[C@H](C(=O)N[C@@H](CCCNC(=N)N)C(=O)NCC(=O)N[C@@H](CCCNC(=N)N)C(=O)N[C@@H](CCCCNC(=O)COCCOCCNC(=O)COCCOCCNC(=O)CC[C@H](NC(=O)CCCCCCCCCCCCCCCCC(=O)O)C(=O)O)C(=O)NCC(=O)NCC(=O)N[C@@H](CO)C(=O)N[C@@H](CCCCNc1c(NCCCCCN(O)C(=O)CCC(=O)NCCCCCN(O)C(=O)CCC(=O)NCCCCCN(O)C(C)=O)c(=O)c1=O)C(=O)O)C(C)C [zirconium-89 labelled] | – | – | rat, stomach | iv, 3 nmol/kg, 168 h, ex vivo | – | tissue uptake | 0.17 %ID/g
C[C@H]1CN(c2n[nH]c3nc(N[C@H]4CC[C@H](NS(=O)(=O)CCC(F)(F)F)CC4)ncc23)CCO1 | Paxillin (PXN, Homo sapiens, UniProt P49023) | biochemical | – | – | – | IC50 | ≥ 20000 nM
Cc1nn(-c2ccccc2)c2c1[C@H](c1cccs1)[C@H](NC(=O)c1cccc(C(F)(F)F)c1)C(=O)N2 | DCN1-like protein 1 | – | – | – | – | IC50 | > 15000 nM
CO[C@H]1C[C@@H]2CC[C@@H](C)[C@@](O)(O2)C(=O)C(=O)N2CCCC[C@H]2C(=O)O[C@H]([C@H](C)C[C@@H]2CC[C@@H](OC(=O)NCCOCCOCCOCCOCCOCCOCCOCCOCCC(=O)N3CCc4cc(Cn5nc(-c6ccc7oc(N)nc7c6)c6c(N)ncnc65)ccc4C3)[C@H](OC)C2)C[C@@H](O)[C@H](C)/C=C(\C)[C@@H](O)[C@@H](OC)C(=O)[C@H](C)C[C@H](C)/C=C/C=C/C=C/1C | – | phase 1 dose escalation, refers to: decreased appetite | advanced solid tumour patients | intravenous, 6 mg weekly, grade ≥3 | – | TRAE incidence | 0%
Cc1cccc(-n2nc(C)c3c2NC(=O)[C@@H](NC(=O)c2cccc(C(F)(F)F)c2)[C@H]3c2ccc(F)cc2)c1 | DCN1-like protein 1 | – | – | – | – | IC50 | > 15000 nM
CC[C@H](C)[C@H](NC(=O)[C@H](Cc1ccc(OP(=O)(O)O)cc1)NC(=O)[C@H](CCC(=O)O)NC(=O)[C@H](Cc1c[nH]cn1)NC(=O)CNC(=O)[C@H](CC(=O)O)NC(=O)[C@H](CO)NC(=O)[C@H](CO)NC(=O)[C@@H](NC(=O)[C@H](CO)NC(=O)[C@H](CCC(=O)O)NC(=O)c1ccc2c(c1)C(=O)OC21c2ccc(N(C)C)cc2Oc2cc(N(C)C)ccc21)C(C)C)C(=O)N[C@@H](Cc1ccc(O)cc1)C(=O)N[C@H](C(=O)N[C@@H](CC(=O)O)C(=O)N1CCC[C@H]1C(=O)N[C@@H](CCSC)C(=O)N[C@@H](CCC(N)=O)C(=O)N[C@@H](CC(=O)O)C(=O)O)C(C)C | Breast cancer anti-estrogen resistance protein 3, SH2 domain (BCAR3, Homo sapiens, UniProt O75815) | binding | – | – | – | Kd | 1540 nM
COc1cc(Nc2ncc(F)c(Nc3ccc4c(n3)NC(=O)C(C)(C)O4)n2)cc(OC)c1OC | MMP1 (Homo sapiens, UniProt P03956) | – | – | metalloproteinase-1 | – | IC50 | > 10000 nM
CC[C@H](C)[C@H](NC(=O)[C@H](Cc1ccccc1)NC(=O)[C@H](CCC(=O)O)NC(=O)[C@H](CCCNC(=N)N)NC(=O)[C@H](C)NC(=O)[C@H](C)NC(=O)[C@H](CCC(N)=O)NC(=O)[C@H](CCCCNc1c(NCCCCCN(O)C(=O)CCC(=O)NCCCCCN(O)C(=O)CCC(=O)NCCCCCN(O)C(C)=O)c(=O)c1=O)NC(=O)[C@H](CCC(=O)O)NC(=O)[C@H](CC(C)C)NC(=O)[C@H](Cc1ccc(O)cc1)NC(=O)[C@H](CO)NC(=O)[C@H](CO)NC(=O)[C@@H](NC(=O)[C@H](CC(=O)O)NC(=O)[C@H](CO)NC(=O)[C@@H](NC(=O)[C@H](Cc1ccccc1)NC(=O)[C@@H](NC(=O)CNC(=O)[C@H](CCC(=O)O)NC(=O)[C@H](C)NC(=O)CCc1cnc[nH]1)[C@@H](C)O)[C@@H](C)O)C(C)C)C(=O)N[C@@H](C)C(=O)N[C@@H](Cc1c[nH]c2ccccc12)C(=O)N[C@@H](CC(C)C)C(=O)N[C@H](C(=O)N[C@@H](CCCNC(=N)N)C(=O)NCC(=O)N[C@@H](CCCNC(=N)N)C(=O)N[C@@H](CCCCNC(=O)COCCOCCNC(=O)COCCOCCNC(=O)CC[C@H](NC(=O)CCCCCCCCCCCCCCCCC(=O)O)C(=O)O)C(=O)NCC(=O)NCC(=O)N[C@@H](CO)C(=O)N[C@@H](CCCCNc1c(NCCCCCN(O)C(=O)CCC(=O)NCCCCCN(O)C(=O)CCC(=O)NCCCCCN(O)C(C)=O)c(=O)c1=O)C(=O)O)C(C)C | GLP1R | cAMP reporter gene, agonist, CRE luciferase | BHK | without Zr, 1% HSA | – | EC50 | 0.37 nM
Nc1nc2c(ncn2[C@@H]2O[C@@H]3COP(=O)(O)O[C@H]4[C@@H](O)[C@H](n5cnc6c(=O)[nH]c(N)nc65)O[C@@H]4COP(=O)(O)O[C@H]3[C@H]2O)c(=O)[nH]1 | Cell cycle histidine kinase CckA, DHp-CA domains (Caulobacter vibrioides, UniProt Q9X688) | isothermal titration calorimetry | Caulobacter crescentus | 12 °C, added: ADP 5 mM | – | Kd | 34000 nM
COc1cc2c(Oc3ccc4[nH]c(C)cc4c3F)ccnc2cc1OCC1(N)CC1 | – | – | paediatric recurrent refractory sarcoma | 12 mg | – | grade 1 or 2 mouth ulcer | 0%
CC[C@H](C)[C@H](NC(=O)[C@H](Cc1ccccc1)NC(=O)[C@H](CCC(=O)O)NC(=O)[C@H](CCCNC(=N)N)NC(=O)[C@H](C)NC(=O)[C@H](C)NC(=O)[C@H](CCC(N)=O)NC(=O)[C@H](CCC(=O)O)NC(=O)[C@H](CCC(=O)O)NC(=O)[C@H](CC(C)C)NC(=O)[C@H](Cc1ccc(O)cc1)NC(=O)[C@H](CO)NC(=O)[C@H](CO)NC(=O)[C@H](CCCCNc1c(NCCCCCN(O)C(=O)CCC(=O)NCCCCCN(O)C(=O)CCC(=O)NCCCCCN(O)C(C)=O)c(=O)c1=O)NC(=O)[C@H](CC(=O)O)NC(=O)[C@H](CO)NC(=O)[C@@H](NC(=O)[C@H](Cc1ccccc1)NC(=O)[C@@H](NC(=O)CNC(=O)[C@H](CCC(=O)O)NC(=O)[C@H](C)NC(=O)CCc1cnc[nH]1)[C@@H](C)O)[C@@H](C)O)C(=O)N[C@@H](C)C(=O)N[C@@H](Cc1c[nH]c2ccccc12)C(=O)N[C@@H](CC(C)C)C(=O)N[C@H](C(=O)N[C@@H](CCCNC(=N)N)C(=O)NCC(=O)N[C@@H](CCCNC(=N)N)C(=O)N[C@@H](CCCCNC(=O)COCCOCCNC(=O)COCCOCCNC(=O)CC[C@H](NC(=O)CCCCCCCCCCCCCCCCC(=O)O)C(=O)O)C(=O)NCC(=O)NCC(=O)N[C@@H](CO)C(=O)N[C@@H](CCCCNc1c(NCCCCCN(O)C(=O)CCC(=O)NCCCCCN(O)C(=O)CCC(=O)NCCCCCN(O)C(C)=O)c(=O)c1=O)C(=O)O)C(C)C | GLP1R | cAMP reporter gene, agonist, CRE luciferase | BHK | without Zr, 0% HSA | – | EC50 | 0.02 nM

Some of these lines once more:
SMILES | target or system | assay | system | setting | scale | endpoint | value
Cc1cccc(-n2nc(C)c3c2NC(=O)[C@@H](NC(=O)c2cccc(C(F)(F)F)c2)[C@H]3c2ccc(F)cc2)c1 | DCN1-like protein 1 | – | – | – | – | IC50 | > 15000 nM
C[C@H]1CN(c2n[nH]c3nc(N[C@H]4CC[C@H](NS(=O)(=O)CCC(F)(F)F)CC4)ncc23)CCO1 | Paxillin (PXN, Homo sapiens, UniProt P49023) | biochemical | – | – | – | IC50 | ≥ 20000 nM
